# Experimental data collected from several papers.
# A part holds a random share of what one study measured. Substitutions count along the parent as printed.

# Block 1
# Target: RNA binding protein fox-1 homolog 2, RRM domain, GST-SBP tag (RBFOX2, Homo sapiens, UniProt O43251-10, residues 100-194)
# Method: RNA Bind-n-Seq
# Molecule type: RNA
# Matrix: in vitro
# Tested at: 365 nM
# Setting: natural RNA segment, single round, ends assumed
# Reference: no-protein control
# Direction: higher = stronger binding
# All sequences stand within: GGGAGUUCUACAGUCCGACGAUC … UGGAAUUCUCGGGUGCCAA
# Residues (chain): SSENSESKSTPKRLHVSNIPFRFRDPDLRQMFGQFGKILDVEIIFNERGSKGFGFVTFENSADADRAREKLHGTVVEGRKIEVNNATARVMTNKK
Oligonucleotide,RBNS enrichment (R)
UUCUGUCUGAAUGGCCCCCCUUUUCAUGCACGCUCGUUCUUAAGAGACGCACCAUCCGCAGGCAGCGUCUCAGUGAAGCCUGUCCCCUGGGCUUGUCCACGGCAGGAGGC,2.27
GAAUAAUGUUUACAUUGGUCCCUGAGGACAUGUGUGCUCAGACAUUCAAGAGCUAGGAGGCCAGAGAGAAGACCUUCAGAAAACGGUAAGUUAAAGAAGACAAGUGUCAU,0.41
AGGCUUGAGAAAAGUGGGGCUGGGGAGAAGCAGGCUUGUCAGACUCCACCCCUGUUGAUGAUCAUUCCUGGGAAGGGGUUUCUCGUUCUAUGCAAUCCUAAAGGACGAAA,0.409
CUUGAGGUUCCUUGAAUUUGCGAGGUGUGGAAAGACUACUUGACUGUCUGUCCAGCUUAGCUGUUAUGUUUUUUGGGGGGGAGGGGUGAUGUGUUAAGAGUGAGUGGUAC,1.44
CCGUCAUGUGGAUGUUAUUGUCGCGCGCGUCUAUAAUUACAAGGUUUUAUUCCUAUUUAAUGUUAUUGACUAUAGCAGAUUUUGGAAAUCAGUGUUUUCCAUGUGACCCU,0.347
AUGCUGUUCUCACUCCUCUCUUGGAAUUGUGCUGGCCCCUUAGUCUACAAUAAACUGUGCCAAUUAAAAACCUAAGGCUAAAACUGAAAGCCCUUUGAUGGGGUCUUAAC,1.01
AAAAUAACAGUUUCAUUGAGAUCAGUAGUAAAUUUUACUAUGUUUUUUUUAAAGCUUACGUACUUGAAUUUUAUAUCAGGAAGAUGGUUUUUGAGCCUGUUCCUUACCCU,0.415
GACUCUGUAUAAAGAAAGUGCUGGACUUUUCCUGAAAGCUGCAAAAAAAUGGUUUAGAUAUAUUUAUAAUAAACUGACUUAAGAGUUUUCUAUAAGAAGAAAAUUAAGAC,0.789
CUCCUGCACUUUGGCCCCACCCACCCAUCCUAGCCUCUCAUGGCCUCCCACCCCCAUGGGUGCUAGGAGGAGGUGACUUUAUAUACCAGCUUCAUUGGGCUGCUUCCUCU,0.403
ACCUAGCUUUGUCUUUGCCCCAGGUCCCCAUGAACUUCCCUGUCCUCAGCUGAAUGCCUCCAAGUCCCUGGCCUGUAGCUUCUCCCAGGCUUAUCAUCCAAUCCCCUUUA,0.453
UUUGCGGGGGGGCCCUACUGUACUGAGGGGAAACCCACAAGUGAGCAUGGGGGAAUGCCCAUCCUGGAGAAGAAUUCUUGCCCUCCCCUCUCUUCUCCUCCCAACCAAAA,1.18
AUCAGACCCUGAGAGGGGAAAAUCUUAAAGUAAAUUACAUUAAAUUAUCUGUGCAUUUCACACCAGGGAAAAUGACCUCCUUUUGGAAGUGUUUUAUGGCUGCUUUCUUU,0.495

# Block 2
# Target: ABI1, truncated, D143A, DHFR fusion (Arabidopsis thaliana)
# Method: DHFR PCA, deep sequencing
# Matrix: yeast
# Setting: methotrexate growth selection, single substitutions
# Together with: (+)-ABA 0.0091 µM
# Reference: wild-type fitted maximum
# Direction: higher = stronger binding
# Starting sequence: PYL1, truncated, DHFR fusion (Arabidopsis thaliana); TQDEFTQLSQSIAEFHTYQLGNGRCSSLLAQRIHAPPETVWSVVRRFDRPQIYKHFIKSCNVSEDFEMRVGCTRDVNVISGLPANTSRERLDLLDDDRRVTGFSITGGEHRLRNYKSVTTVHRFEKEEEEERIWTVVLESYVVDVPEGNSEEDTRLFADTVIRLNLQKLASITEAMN; partner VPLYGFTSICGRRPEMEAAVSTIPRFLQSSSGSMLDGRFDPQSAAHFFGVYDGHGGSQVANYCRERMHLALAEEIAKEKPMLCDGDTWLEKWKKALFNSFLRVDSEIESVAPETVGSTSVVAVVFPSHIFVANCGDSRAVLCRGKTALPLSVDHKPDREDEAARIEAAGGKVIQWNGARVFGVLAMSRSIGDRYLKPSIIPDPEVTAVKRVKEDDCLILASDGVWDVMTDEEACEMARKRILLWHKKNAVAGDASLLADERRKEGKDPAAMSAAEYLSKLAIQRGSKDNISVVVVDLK
Variant,relative binding score
L169S,-3.76%
L93R,4.02%
L138G,3.34%
Q51L,-0.914%
I79D,3.3%
S11G,0.127%
A158Q,29.9%
Q19H,19.9%
L82D,6.54%
S140V,-1.76%
R98G,-2.15%
T119E,-3.28%
L93Q,-2.31%

# Block 3
# Target: Phosphate system positive regulatory protein PHO4, full length, GST-tagged (PHO4, Saccharomyces cerevisiae, UniProt P07270, residues 1-312)
# Method: competition protein-binding microarray
# Molecule type: double-stranded DNA, one strand shown
# Matrix: in vitro
# Tested at: 2 µM
# Setting: whole 60-bp probe, lowest competitor level
# Together with: Cbf1 competitor, 0.05 µM
# Direction: higher = stronger binding
# All sequences stand within: … GTCTTGATTCGCTTGACGCTGCTG
# Target sequence (chain): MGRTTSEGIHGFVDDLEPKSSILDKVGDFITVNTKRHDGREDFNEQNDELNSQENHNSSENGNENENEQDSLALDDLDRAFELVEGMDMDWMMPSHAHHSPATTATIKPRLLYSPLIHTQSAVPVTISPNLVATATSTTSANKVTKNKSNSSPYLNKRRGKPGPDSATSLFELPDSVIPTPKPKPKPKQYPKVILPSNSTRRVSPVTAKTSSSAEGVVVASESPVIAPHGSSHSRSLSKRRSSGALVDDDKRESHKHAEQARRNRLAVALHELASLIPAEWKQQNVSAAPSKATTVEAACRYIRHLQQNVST
Oligonucleotide,fluorescence intensity
CTTCTGTAAATTTGAATTGTGGGTGGACGCGCCCCG,4220 a.u.
TGGTCTCAGTGCTGGCACCTGACGAACTATTCGTAG,4450 a.u.
CGGGGTTAAGTTTTTCACGTGTGGTGCTTGCAGCAG,12000 a.u.
ATGAAGATTCTTGTTCATGTGATACAGCTTTTCTAG,5820 a.u.
CTAACGAAGGTTTGTCACCCAACTTACAAGCCAAGT,3330 a.u.
CCAACCGGTGTCCACCGCGTGGTCCAGGCGACTTAT,10100 a.u.
AGTCTTGATTTCTTGCGCATGACGGATTAAATTCTT,5360 a.u.
GACTTGGCCTAGTTCCACATGTTTTTCATCATCCAG,7610 a.u.
CTTTCCCGATCTTGTCCTGTGGGTGTAGCACATTTG,4690 a.u.
CTTTCCCGATCTTTTCACGTGGTCTTAGCACATTTG,15400 a.u.
CCAGCAGAAACGCTACACGTGATGGTAATGGAACTA,14600 a.u.

# Block 4
# Molecule: PhoQ, residues 284 288 289 292 302 303 NLGVHL
# Method: Sort-seq
# Refers to: YFP reporter
# Matrix: E. coli
# Setting: PhoQ-PhoP variant library
# Together with: 10 µM Mg2+
# Reference: high Mg2+ state
# Direction: higher = stronger signaling
target,fold induction
"PhoP, residues 12 14 15 18 19 HHYTI (Escherichia coli, UniProt P23836)",14.8
"PhoP, residues 12 14 15 18 19 SFCSL (Escherichia coli, UniProt P23836)",9.54
"PhoP, residues 12 14 15 18 19 AYFRS (Escherichia coli, UniProt P23836)",12.1

# Excerpt of the above (block 3):
Oligonucleotide,fluorescence intensity
AGTCTTGATTTCTTGCGCATGACGGATTAAATTCTT,5360 a.u.
ATGAAGATTCTTGTTCATGTGATACAGCTTTTCTAG,5820 a.u.
CTAACGAAGGTTTGTCACCCAACTTACAAGCCAAGT,3330 a.u.
GACTTGGCCTAGTTCCACATGTTTTTCATCATCCAG,7610 a.u.
CGGGGTTAAGTTTTTCACGTGTGGTGCTTGCAGCAG,12000 a.u.
